Experimental data of several laboratories.
A part holds a random share of what one study measured. Substitutions count along the parent as printed.

Sample 1 — technique: Sort-seq; refers to: YFP reporter; medium: E. coli; notes: PhoQ-PhoP variant library; together with: 10 µM Mg2+; reference: high Mg2+ state; direction: higher = stronger signaling
Molecule: PhoQ, residues 284 288 289 292 302 303 AEGLLW
It gave 1.29 for fold induction (PhoP, residues 12 14 15 18 19 SHWTV (Escherichia coli, UniProt P23836)).
The fold induction was 4.73 (PhoP, residues 12 14 15 18 19 QYCSL (Escherichia coli, UniProt P23836)).
PhoP, residues 12 14 15 18 19 STHWV (Escherichia coli, UniProt P23836) — fold induction: 5.78.

Sample 2 — technique: RNAcompete; molecule type: RNA; medium: in vitro; tested at: 20 nM; notes: 7-mer, probes averaged, single round; reference: mean of 7-mers; direction: higher = stronger binding
Target: PABPC1L2, full length, GST fusion (mouse, UniProt A0ABA7IW68)
Construct (chain): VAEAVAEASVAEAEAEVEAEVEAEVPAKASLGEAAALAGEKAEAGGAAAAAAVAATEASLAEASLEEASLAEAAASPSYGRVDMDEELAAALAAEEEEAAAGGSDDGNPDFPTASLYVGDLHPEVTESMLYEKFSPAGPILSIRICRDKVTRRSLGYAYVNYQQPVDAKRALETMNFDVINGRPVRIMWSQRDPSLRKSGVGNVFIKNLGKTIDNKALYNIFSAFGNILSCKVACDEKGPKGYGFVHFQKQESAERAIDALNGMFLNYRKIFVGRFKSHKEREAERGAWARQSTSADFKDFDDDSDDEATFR
The 7-mer Z-score of `CCACGUG` is reported as -0.197.
`GGCCAAG` has a 7-mer Z-score of 0.0442.
With `CCUCAAA` the 7-mer Z-score was 0.229.
For `AUUACAG`, the 7-mer Z-score was -0.0174.
`CCUGAAC` gave a 7-mer Z-score of -0.228.
For `GUAUACC`, the 7-mer Z-score was -0.356.

Sample 3 — technique: RNA Bind-n-Seq; molecule type: RNA; medium: in vitro; tested at: 200 nM; notes: whole 134-nt RNA, ends assumed; together with: 150 mM LiCl; reference: input library; direction: higher = stronger binding; each molecule: 7-deaza-guanosine replaces G
Target: Ras GTPase-activating protein-binding protein 1, full length (G3BP1, Homo sapiens, UniProt Q13283)
UniProt Q13283, sequence (whole entry, looked up): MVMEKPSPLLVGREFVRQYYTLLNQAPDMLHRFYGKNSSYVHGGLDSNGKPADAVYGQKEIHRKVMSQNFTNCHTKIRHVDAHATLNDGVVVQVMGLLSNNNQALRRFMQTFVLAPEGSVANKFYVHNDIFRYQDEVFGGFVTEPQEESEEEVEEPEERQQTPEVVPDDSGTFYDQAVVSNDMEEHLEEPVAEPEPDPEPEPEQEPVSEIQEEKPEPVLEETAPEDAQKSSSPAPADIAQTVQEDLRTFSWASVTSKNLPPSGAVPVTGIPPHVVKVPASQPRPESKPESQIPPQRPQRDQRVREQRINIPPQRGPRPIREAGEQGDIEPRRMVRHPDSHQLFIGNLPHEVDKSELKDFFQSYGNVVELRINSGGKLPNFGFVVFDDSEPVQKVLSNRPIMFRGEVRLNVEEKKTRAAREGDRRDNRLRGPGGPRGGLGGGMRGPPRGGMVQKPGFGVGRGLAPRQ
All sequences stand within: GGGAGUUCUACAGUCCGACGAUC … UGGAAUUCUCGGGUGUCAAGG
The log2 enrichment of `AAGUCCUGUGCUACACAUCGUAUGUACCGAAUCGGAAAAAGGUUUUUGGUUUUUGGAAAGUAUUAUGUUACGCCGUUCGGAUCUGCACUU` is reported as -2.44.
For `AGUCCUGUGCUACACAUCGUAUGUACCGAAUCGGUUUUUUUGGUUUUUUUGGUUUGGAAAGUAUUAUGUUACGCCGUUCGGAUCUGCACU`, the log2 enrichment was -1.61.
With `CUGUGCUACACAUCGUAUGUACCGAAUCGGGAAAAAAAGGGAAAAAAAGGGGAAAAAAAGGGAAAGUAUUAUGUUACGCCGUUCGGAUCU` the log2 enrichment was 0.118.
`UCCUGUGCUACACAUCGUAUGUACCGAAUCGGGGAAAAAGGGGAAAAAGGGGAAAAAGGGAAAGUAUUAUGUUACGCCGUUCGGAUCUGC` gave a log2 enrichment of 0.0641.
For `GUCCUGUGCUACACAUCGUAUGUACCGAAUCGGGGCCCCCGGCCCCCGGGCCCCCGGGAAAGUAUUAUGUUACGCCGUUCGGAUCUGCAC`, the log2 enrichment was -1.83.
With `UGGGAGGUGGAUUUUGUUUAUUUUUUUAGCUCAUUUCCAGGGGUGGGAAUGUUUUUUUAAUAUGUGUCAUGAAUAAAGUUGUUUUUGAAA` the log2 enrichment was -0.508.
`AGUCCUGUGCUACACAUCGUAUGUACCGAAUCGGCCCCCGGCCCCCGGGGCCCCCGGAAAGUAUUAUGUUACGCCGUUCGGAUCUGCACU` gave a log2 enrichment of -1.84.
The log2 enrichment of `UAACUUUAGAGGAGGAUCUGAUGGAUAUGGGAGUGGACGUGGAUUUGGGGAUGGCUAUAAUGGGUAUGGAGGAGGACCUGGAGGUGGCAA` is reported as -0.0906.
The log2 enrichment of `UGCAGACGGGGAACCUGCUGAACUGGGGCCGCCUGCGGAAGAAGUGCCCGUCCACGCACAGCGAGGAGGUGAGCGUGGCGACACUCGCCG` is reported as -1.68.
With `UCAAGUCCUGUGCUACACAUCGUAUGUACCGAAUCGGGGCCGGCCGGGGCCGGGGAAAGUAUUAUGUUACGCCGUUCGGAUCUGCACUUC` the log2 enrichment was -0.101.

Sample 4 — target: CCNF, cyclin fold, Cln2 fusion (human); technique: yeast growth competition, sequencing; medium: yeast; notes: strong parent motif; reference: not given; direction: higher = stronger binding
Parent: INSM1 docking peptide (human); PKAIRKLHFEDEV
For `A3I`, “normalised enrichment score” read 7.04.
`A3N` — result for “normalised enrichment score”: 1.96.
Under “normalised enrichment score”, `F9P` is recorded as 0.402.
Under “normalised enrichment score”, `I4S` is recorded as 7.51.
`I4R` — result for “normalised enrichment score”: 8.16.
`K2R`: “normalised enrichment score” 7.85.
`K2T`: “normalised enrichment score” 7.46.

A few entries again (sample 3):
With `UGGGAGGUGGAUUUUGUUUAUUUUUUUAGCUCAUUUCCAGGGGUGGGAAUGUUUUUUUAAUAUGUGUCAUGAAUAAAGUUGUUUUUGAAA` the log2 enrichment was -0.508.
`AGUCCUGUGCUACACAUCGUAUGUACCGAAUCGGCCCCCGGCCCCCGGGGCCCCCGGAAAGUAUUAUGUUACGCCGUUCGGAUCUGCACU` gave a log2 enrichment of -1.84.
The log2 enrichment of `UAACUUUAGAGGAGGAUCUGAUGGAUAUGGGAGUGGACGUGGAUUUGGGGAUGGCUAUAAUGGGUAUGGAGGAGGACCUGGAGGUGGCAA` is reported as -0.0906.
